# Measured values gathered from unrelated publications.
# A part holds a random share of what one study measured.

# Block 1 — method: universal PBM; form: double-stranded DNA, one strand shown; matrix: in vitro; tested at: not given; reading: higher = stronger binding
# Target: Sal-like protein 4, full length isoform B (SALL4, Homo sapiens, UniProt Q9UJQ4-2, residues 1-616)
# Setting: 8-mer, flanks averaged, mean of replicates
Oligonucleotide,E-score
TAGCTACA,0.171
GACACCAA,0.157
CACGAATC,-0.165
CAGCAAGC,-0.193
CTTAATTC,0.257
CCGTGTAA,-0.00615
TTAAACAA,0.123
CTCCCAAC,-0.214

# Block 2 — organism: SARS-CoV-2; read-out: cytopathic effect; cells: Vero E6; tested at: 10 µM
Structure (SMILES),inhibition [%]
Nc1ccc(S(=O)(=O)Nc2ncccn2)cc1,-22.9
CCCCCCCCCCCCCCCC[n+]1ccn(Cc2ccccc2)c1C,-34.1
COc1ncc(-c2ccc3nccc(-c4ccnnc4)c3c2)cc1NS(=O)(=O)c1ccc(F)cc1F,-13.5
Cc1ccc(C(=O)n2nc(-c3cccnc3)nc2N)cc1,-6.5
COC(=O)/C=C/c1cc(O)ccc1O,-8.3
C[C@@](Cc1ccc(O)c(O)c1)(NN)C(=O)O,-2.2
O=C(CCl)c1ccccc1,5.2

# Block 3 — action: inhibitor; tested at: 20 µM
# Target: Replicase polyprotein 1ab, nsp13 helicase (rep, Severe acute respiratory syndrome coronavirus 2, UniProt P0DTD1)
SMILES,inhibition
CO[C@@]1(NC(=O)C(C(=O)O)c2ccc(O)cc2)C(=O)N2C(C(=O)O)=C(CSc3nnnn3C)CO[C@@H]21 (some centres unmarked),-0.87%
O=C1CCC2CCC(=O)N12,-0.16%
CC(C(=O)O)c1ccc(CC2CCCC2=O)cc1 (centres unmarked),2.04%
CC1(COc2ccc(CC3SC(=O)NC3=O)cc2)CCCCC1 (centres unmarked),9.8%
CCCN1CCCC[C@H]1C(=O)Nc1c(C)cccc1C,6.16%
C[C@@H]1C[C@H]2[C@@H]3C[C@H](F)C4=CC(=O)C=C[C@]4(C)[C@@]3(Cl)[C@@H](O)C[C@]2(C)[C@H]1C(=O)COC(=O)C(C)(C)C,4.45%
N=C(N)N/N=C/c1c(Cl)cccc1Cl,0.7%
O=S(=O)(N=Cc1c(O)ccc2ccccc12)c1cccs1,2.72%
CN1CCN(c2nc(C3=C(c4c[nH]c5ccccc45)C(=O)NC3=O)c3ccccc3n2)CC1,12.1%
COc1cc(OC)c(NC(=O)Nc2cc(C)on2)cc1Cl,-2.87%
C[C@H](NC(=O)C(C)(C)Oc1ccc(C(F)(F)F)cn1)[C@@H](Cc1ccc(Cl)cc1)c1cccc(C#N)c1,-4.2%
O=C(Nc1nc2ccc(NC(=O)C34C[C@H]5C[C@@H](C3)C[C@@H](C4)C5)cc2s1)c1ccccc1,-0.31%
CC(=O)Nc1ccc(OC[C@](C)(O)C(=O)Nc2ccc([N+](=O)[O-])c(C(F)(F)F)c2)cc1,6.24%
O=C(Nc1cc(Oc2cc(F)c(NC(=O)C3(C(=O)Nc4ccc(F)cc4)CC3)cc2F)ccn1)C1CC1,4.68%
CCCCN(CCCC)CCC(O)c1cc2c(Cl)cc(Cl)cc2c2cc(C(F)(F)F)ccc12 (centres unmarked),7.09%
c1ccc(-c2cnn3cc(-c4ccc(OCCN5CCOCC5)cc4)cnc23)cc1,-1.25%
C=CCOc1ccccc1OCC(O)CNC(C)C (centres unmarked),-1.89%
Cc1ccc2c(=O)c3ccccc3n(CCCN)c2c1C,25.5%
O=C(CCCCCCNC(=O)c1cnc(N(c2ccccc2)c2ccccc2)nc1)NO,6.77%
COc1ccc(OC)c2c(=S)c3ccccc3[nH]c12,24.4%
NCCS(=O)(=O)O,-8.29%
O=C(O)COc1nn(Cc2ccccc2)c2ccccc12,3.67%
COCCOc1cnc2ccn([C@H](C)c3nnc4c(F)cc(-c5cnn(C)c5)cn34)c(=O)c2c1,13.2%
CCOc1ccc2nc(SCCN3CCOCC3)[nH]c2c1,5.4%
N#CC1(c2ccc(NC(=O)c3cccnc3NCc3ccncc3)cc2)CCCC1,36.7%

# Block 4 — method: RNA Bind-n-Seq; form: RNA; matrix: in vitro; tested at: 365 nM; relative to: no-protein control; reading: higher = stronger binding
# Target: RNA binding protein fox-1 homolog 2, RRM domain, GST-SBP tag (RBFOX2, Homo sapiens, UniProt O43251-10, residues 100-194)
# Setting: natural RNA segment, single round, ends assumed
# Constant ends, left off below: GGGAGUUCUACAGUCCGACGAUC … UGGAAUUCUCGGGUGCCAA
# Construct (chain): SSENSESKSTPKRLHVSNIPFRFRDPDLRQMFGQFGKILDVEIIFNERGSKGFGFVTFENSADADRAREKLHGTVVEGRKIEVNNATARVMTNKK
Oligonucleotide,RBNS enrichment (R)
GAGAUGUGAGCCUUGUGCAUGUGGGGGAGGAGGGAGAGAGAUGUACUUUUUAAAUCAUGUUCCCCCUAAACAUGGCUGUUAACCCACUGCAUGCAGAAACUUGGAUGUCA,28.8
AAAAUCUGAAUCCAUAAGCGUUUAGAACAACAUCAGUUAGAGUUUGAGCAUUAUUCAGCAUUAGGGAAACCACACACUGGUGAGAGGUCUUUCAGUGUACUAAAAGGCAG,1.03
AGUAAUACAAGCAAACAAGUGUCCGUUUUGAAUUCUGAUUUGUAAUCUGAAUACUAAACAUAUUAGACCCACCUGAAAAUAAUAUAGCCAAUUUCUAGGUAAUCUUACUG,0.272
CCCAGUGAAGAGCUCAGGCCCUCAGGAAGUGUCUGCUGAAUGGAAUGGCCCAGCAUUAGCCCAGUAUUGGAAAAGACACCAGCCCAGGGGCCCUGACUCGUCACACUUCC,0.81
AGGACAAGGGCCCAGAACUGAAACUUGAUCUUAAAAUUUACCAUGGAAAUGAGGUCUUAGGCUCUUCUUUAAAUGUGUGUACUUUUAUCUGUGAGAGACUGACUAUAGCA,3.32
GUAUUUCUCUAGUGUAUUUAGUGUGUCGUCAAAAUUUUGAUUUAUACAGAGCUUUCAAGAACACACAAUGCAAAGUGAGCGCAGCAUAGCUGUUAACAAACAUACAACUU,0.247
UAGAGAGAAAGAGAGAGAGAGAGAGUUGGCAUAAGGACAGUCUUAUCUGUGUCAACCCUCUGCCUGCAGGGACAGAUAAAUGGAACUCUGGUUGUGAUAUCAUAACUAAG,1.94
CUCCUCCAGUGUGGGCUUGACCAGGCUUGGCCUUGGGCUAUUUGGACUCAGGUGGGCCCUCUGAACUUGCCUUAAACACUCACCUUCUAGUCUUGGCCAGCCAACUCUGG,0.629

# Block 5 — method: protein binding microarray; form: double-stranded DNA, one strand shown; matrix: in vitro; tested at: not given; relative to: not given; reading: higher = stronger binding
# Target: Histone acetyltransferase KAT6A, winged helix 2, GST fusion (KAT6A, Homo sapiens, UniProt Q92794, residues 85-181)
# Setting: 8-mer, flanks averaged, mean of 2 arrays, mostly near background
# Residues (chain): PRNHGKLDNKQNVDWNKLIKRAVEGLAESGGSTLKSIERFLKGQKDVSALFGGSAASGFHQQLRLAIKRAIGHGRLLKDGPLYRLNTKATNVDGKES
Oligonucleotide,E-score
TCTACCAA,0.0301
ATCAACGC,0.0245
CTCTCTCA,-0.105
GGGTCCAC,0.0265
TAGGCCCA,-0.0801
ATGGTACC,-0.134
CAGACAGC,-0.126
CGAAGATA,0.127

# Some of these lines once more (block 3):
SMILES,inhibition
CC(C(=O)O)c1ccc(CC2CCCC2=O)cc1 (centres unmarked),2.04%
CC1(COc2ccc(CC3SC(=O)NC3=O)cc2)CCCCC1 (centres unmarked),9.8%
CCCN1CCCC[C@H]1C(=O)Nc1c(C)cccc1C,6.16%
C[C@@H]1C[C@H]2[C@@H]3C[C@H](F)C4=CC(=O)C=C[C@]4(C)[C@@]3(Cl)[C@@H](O)C[C@]2(C)[C@H]1C(=O)COC(=O)C(C)(C)C,4.45%
